Assay results gathered from unrelated publications.
Every numbered part comes from another study and shows a few of its results, in no order. Changes are numbered by the printed parent chain.

Block 1 — method: RNA Bind-n-Seq; form: RNA; medium: in vitro; tested at: 200 nM; setting: whole 134-nt RNA, ends assumed; added: 150 mM LiCl; reference: input library; direction: higher = stronger binding; library: 7-deaza-guanosine replaces G
Target: Fragile X messenger ribonucleoprotein 1, C-terminal low-complexity region (Fmr1, Mus musculus, UniProt P35922)
With `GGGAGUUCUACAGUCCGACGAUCUCCUCAAGUCCUGUGCUACACAUCGUAUGUACCGAAUCGGAAGGAAGGAAGGAAAGUAUUAUGUUACGCCGUUCGGAUCUGCACUUCCAGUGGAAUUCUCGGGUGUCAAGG` the log2 enrichment was -0.0131.
With `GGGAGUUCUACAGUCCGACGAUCUUCCCUCUGUUUUAUUUUUCCCCCGUGUGUCCCUACUAUGGUCAGAAAGCCUGUUGUGUCCACCAUCUCCAAAGGAGGUUACCUGCAGGGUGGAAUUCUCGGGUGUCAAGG` the log2 enrichment was 1.6.
With `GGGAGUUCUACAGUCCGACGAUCACCAUGCAGGUGAGCAUCUUUGGGAAGUGGGGCAAGGGGGGGAUAGGGAGGGGGGUAACACUUUGGGAACAGGUGGUCCCAGGUCGUUUCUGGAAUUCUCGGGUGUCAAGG` the log2 enrichment was 1.45.
For `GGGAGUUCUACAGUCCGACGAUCACCAUGCAGGUGGGCAUCUUUGGUAAGUGGGGCAAGGGGGGGAUAGGGAGGGGGGUAACACUUUGGGAACAGGUGGUCCCAGGUCGUUUCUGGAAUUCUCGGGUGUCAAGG`, the log2 enrichment was 1.38.
The log2 enrichment of `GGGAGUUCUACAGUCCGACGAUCUGGCCCGGGUGGCAUGCGGGGAGGAAGAGGUGGCCUCAUGGAUCGUGGUGGUCCCGGUGGAAUGUUCAGAGGUGGCCGUGGUGGAGACAGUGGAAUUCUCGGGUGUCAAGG` is reported as -0.6.
`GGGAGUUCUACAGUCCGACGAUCCAAGUCCUGUGCUACACAUCGUAUGUACCGAAUCGGGGUUUGGGUUUGGGUUUGGGAAAGUAUUAUGUUACGCCGUUCGGAUCUGCACUUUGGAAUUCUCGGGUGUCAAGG` has a log2 enrichment of -1.58.
`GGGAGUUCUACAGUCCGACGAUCUGGCCCUGGUGGCAUGCGGGGAGGAAGAGGUGGCCUCAUGGAUCGUGGUGGUCCCGGUGGAAUGUUGAGAGGUGGCCGUGGUGGAGACAGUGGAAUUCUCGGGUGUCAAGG` has a log2 enrichment of 0.00983.

Block 2 — target: CCND2, cyclin fold, Cln2 fusion (human); method: yeast growth competition, sequencing; medium: yeast; setting: weak parent motif; reference: not given; direction: higher = stronger binding
Parent: SLBP docking peptide (human); ARYKRKLLINDFG; partner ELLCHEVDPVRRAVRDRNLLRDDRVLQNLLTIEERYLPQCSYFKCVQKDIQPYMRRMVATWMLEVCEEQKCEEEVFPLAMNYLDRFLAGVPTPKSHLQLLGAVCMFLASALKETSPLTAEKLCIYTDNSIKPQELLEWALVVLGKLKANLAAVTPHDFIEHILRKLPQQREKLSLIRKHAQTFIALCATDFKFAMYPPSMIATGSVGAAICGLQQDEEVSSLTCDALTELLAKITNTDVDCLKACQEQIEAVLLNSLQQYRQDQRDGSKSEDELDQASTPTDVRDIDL
`K4I` — result for “normalised enrichment score”: -0.0221.
`A1R`: “normalised enrichment score” -0.405.
For `D11M`, “normalised enrichment score” read 0.355.
Under “normalised enrichment score”, `L7W` is recorded as -0.233.
`A1D`: “normalised enrichment score” 0.341.

Block 3 — method: protein binding microarray; form: double-stranded DNA, one strand shown; medium: in vitro; tested at: not given; reference: not given; direction: higher = stronger binding
Target: Histone acetyltransferase KAT6A, both winged helices, GST fusion (KAT6A, Homo sapiens, UniProt Q92794, residues 1-181)
Setting: 8-mer, flanks averaged, mean of 2 arrays, mostly near background
Target sequence (chain): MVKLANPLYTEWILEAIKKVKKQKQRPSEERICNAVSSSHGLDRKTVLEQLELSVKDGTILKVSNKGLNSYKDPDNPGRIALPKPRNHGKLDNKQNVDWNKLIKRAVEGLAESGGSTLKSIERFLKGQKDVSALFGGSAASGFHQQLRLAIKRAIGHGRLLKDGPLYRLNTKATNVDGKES
For `ATTGGACC`, the E-score was -0.012.
`CCTCCTCG` gave an E-score of -0.186.
The E-score of `GTAAGCTA` is reported as -0.078.
For `GAAATGGC`, the E-score was 0.035.
`AACCCTGC` has an E-score of -0.0652.
The E-score of `CCCCAAAC` is reported as -0.13.
`TCCCGCAA` gave an E-score of 0.194.
`CGTCAGAG` has an E-score of -0.0946.
With `ACTCGCTA` the E-score was 0.0444.

Further values, each from its own experiment
With `PhoQ, residues 284 288 289 292 302 303 ALVSVA` the fold induction was 2.37 (PhoP, residues 12 14 15 18 19 HLGGL (Escherichia coli, UniProt P23836); Sort-seq, measured: YFP reporter; E. coli; PhoQ-PhoP variant library, added: 10 µM Mg2+; reference: high Mg2+ state, higher = stronger signaling).

A few entries again (block 3):
The E-score of `CCCCAAAC` is reported as -0.13.
`TCCCGCAA` gave an E-score of 0.194.
